Measured values gathered from unrelated publications.
Parts stem from different laboratories: compare values within a part only.

Sample 1
Target: Histone acetyltransferase KAT6A, winged helix 1, GST fusion (KAT6A, Homo sapiens, UniProt Q92794, residues 1-85)
Method: protein binding microarray
Molecule type: double-stranded DNA, one strand shown
Matrix: in vitro
Concentration: not given
Notes: 8-mer, flanks averaged, mean of 2 arrays, mostly near background
Reference: not given
Direction: higher = stronger binding
Residues (chain): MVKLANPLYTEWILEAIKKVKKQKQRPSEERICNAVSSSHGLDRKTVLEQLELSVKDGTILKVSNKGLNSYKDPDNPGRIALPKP
Sequence | E-score
CATGAACA | -0.0799
ACTCCGTA | 0.246
CCGTCCCA | 0.0926
CCGATACG | 0.305
ACAAGACA | -0.126
CCCCTGCG | 0.117
AATGTGAG | -0.223
ACTGCAAG | -0.0785
CGGGTTAG | 0.287
GCGAAGAC | 0.167
AGCTAGTC | -0.0853
ATGTTCTA | -0.0963
AGTCCTCC | -0.0373
GCCCTCCA | -0.0115
CCGGTTCA | 0.116
AAGTCTGA | -0.329
ACCAGGAG | -0.161
CAGTCTGC | -0.104

Sample 2
Target: Sal-like protein 4, full length isoform B (SALL4, Homo sapiens, UniProt Q9UJQ4-2, residues 1-616)
Method: universal PBM
Molecule type: double-stranded DNA, one strand shown
Matrix: in vitro
Concentration: not given
Notes: 8-mer, flanks averaged, mean of replicates
Direction: higher = stronger binding
Residues (chain): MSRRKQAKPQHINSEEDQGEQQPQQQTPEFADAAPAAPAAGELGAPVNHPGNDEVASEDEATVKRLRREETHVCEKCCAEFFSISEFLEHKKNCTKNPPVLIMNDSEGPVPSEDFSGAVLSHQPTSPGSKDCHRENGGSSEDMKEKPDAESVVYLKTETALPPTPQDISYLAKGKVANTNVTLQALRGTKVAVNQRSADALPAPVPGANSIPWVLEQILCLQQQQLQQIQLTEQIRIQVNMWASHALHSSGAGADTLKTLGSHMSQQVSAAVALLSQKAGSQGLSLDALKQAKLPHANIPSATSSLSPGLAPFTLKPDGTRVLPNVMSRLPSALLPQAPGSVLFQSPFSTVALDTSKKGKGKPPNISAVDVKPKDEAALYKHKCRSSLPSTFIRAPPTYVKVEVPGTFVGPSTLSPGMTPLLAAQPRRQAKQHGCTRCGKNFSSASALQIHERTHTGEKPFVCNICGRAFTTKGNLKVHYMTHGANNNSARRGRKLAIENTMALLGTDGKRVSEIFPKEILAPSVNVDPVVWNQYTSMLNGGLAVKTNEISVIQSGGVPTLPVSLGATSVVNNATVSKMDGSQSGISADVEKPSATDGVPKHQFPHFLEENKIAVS
Sequence | E-score
CTTAAAGA | 0.0369
AGGTCCCC | -0.391
ATTAATGA | 0.341
CCATGCAG | -0.151
ACCCAGTC | -0.156
CAGCTGCC | -0.258
ATAGTGAC | 0.167
AACGCTCT | -0.163
CTTCCTGC | -0.163
ACACGATG | 0.0432
CCCCATTA | -0.0613
AAAACACC | -0.0793
AGTTCTTG | 0.122
AAAAAACT | 0.213
CGATTCGA | -0.0433
TATTAAAA | 0.452
AATCCTAG | 0.174
CTTCAAAA | 0.189
GCATCGCA | -0.186
AAGTTGCG | -0.143
CTTTGCGC | -0.0406
AGTCGAAG | 0.0225

Sample 3
Target: Ras GTPase-activating protein-binding protein 1, RRM domain (G3BP1, Homo sapiens, UniProt Q13283)
UniProt Q13283, sequence (whole entry, looked up): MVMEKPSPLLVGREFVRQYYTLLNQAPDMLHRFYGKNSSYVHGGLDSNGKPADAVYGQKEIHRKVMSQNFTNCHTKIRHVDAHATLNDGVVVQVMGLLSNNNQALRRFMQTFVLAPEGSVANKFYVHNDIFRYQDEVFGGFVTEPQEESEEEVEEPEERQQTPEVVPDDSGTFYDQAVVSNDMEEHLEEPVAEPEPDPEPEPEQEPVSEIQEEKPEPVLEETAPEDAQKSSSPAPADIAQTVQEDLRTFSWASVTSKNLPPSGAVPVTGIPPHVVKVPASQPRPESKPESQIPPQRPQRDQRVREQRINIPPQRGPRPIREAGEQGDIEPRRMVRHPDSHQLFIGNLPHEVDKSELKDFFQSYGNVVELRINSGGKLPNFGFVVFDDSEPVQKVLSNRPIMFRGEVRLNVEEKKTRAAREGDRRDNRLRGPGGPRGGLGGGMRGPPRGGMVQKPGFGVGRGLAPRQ
Method: RNA Bind-n-Seq
Molecule type: RNA
Matrix: in vitro
Concentration: 1 µM
Notes: whole 134-nt RNA, ends assumed
Together with: 150 mM KCl
Reference: input library
Direction: higher = stronger binding
Sequence | log2 enrichment
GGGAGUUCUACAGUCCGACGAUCCCUCAAGUCCUGUGCUACACAUCGUAUGUACCGAAUCGGGUGGUGGGGUGGGGAAAGUAUUAUGUUACGCCGUUCGGAUCUGCACUUCCAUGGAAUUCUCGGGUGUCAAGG | 0.258
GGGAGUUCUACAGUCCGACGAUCUUGACAUGAAGACAAUGGAGACUGCAGAGAAACUGGCUAGAUUUGUUGCUCAGGUGGGACCAGAGAUCGAACAAUUCAGCAUAGAAAACAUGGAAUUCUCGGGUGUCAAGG | -0.0252
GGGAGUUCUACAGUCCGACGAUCAAGUCCUGUGCUACACAUCGUAUGUACCGAAUCGGGCCCCCGGCCCCCGGCCCCCGGAAAGUAUUAUGUUACGCCGUUCGGAUCUGCACUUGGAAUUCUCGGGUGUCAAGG | -0.497
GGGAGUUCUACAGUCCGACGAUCACCAUGCAGAUGGGCAUCUUUGGGAAGUGGGGCAAGGGGGGGAUAGGGAGGGGGGUAACACUUUGGGAACAGGUGGUCCCAGGUCGUUUCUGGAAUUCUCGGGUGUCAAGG | -0.548
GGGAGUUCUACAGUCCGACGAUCCCUCAAGUCCUGUGCUACACAUCGUAUGUACCGAAUCGGAAGGAAGGGGAAGGAAAGUAUUAUGUUACGCCGUUCGGAUCUGCACUUCCAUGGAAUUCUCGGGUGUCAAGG | -0.221
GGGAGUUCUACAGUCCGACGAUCUCCUGUGCUACACAUCGUAUGUACCGAAUCGGGGUUUGGGGUUUGGGGUUUUUUUGGGGAAAGUAUUAUGUUACGCCGUUCGGAUCUGCAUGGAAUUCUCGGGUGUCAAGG | 1.51
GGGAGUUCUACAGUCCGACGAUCAGUCCUGUGCUACACAUCGUAUGUACCGAAUCGGGGUUUUUGGUUUUUGGUUUUUGGAAAGUAUUAUGUUACGCCGUUCGGAUCUGCACUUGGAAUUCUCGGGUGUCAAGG | -0.245
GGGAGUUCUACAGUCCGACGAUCCCUGUGCUACACAUCGUAUGUACCGAAUCGGGGUUUUUGGGGAAAAAGGGGAAAAAGGGGAAAGUAUUAUGUUACGCCGUUCGGAUCUGCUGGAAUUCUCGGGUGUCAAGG | 0.751
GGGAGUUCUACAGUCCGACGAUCGUCCUGUGCUACACAUCGUAUGUACCGAAUCGGGGAAAGGGGUUUUUUUGGGGAGGGGAAAGUAUUAUGUUACGCCGUUCGGAUCUGCACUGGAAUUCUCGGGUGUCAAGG | 1.14

Sample 4
Target: RING finger protein unkempt homolog, zinc fingers 1-6, GST-SBP tag (UNK, Homo sapiens, UniProt Q9C0B0, residues 30-357)
Method: RNA Bind-n-Seq
Molecule type: RNA
Matrix: in vitro
Concentration: not given
Notes: RNA with constant flanks, human-mouse chimeric sites, ends assumed
Reference: input RNA pool
Direction: higher = stronger binding
Residues (chain): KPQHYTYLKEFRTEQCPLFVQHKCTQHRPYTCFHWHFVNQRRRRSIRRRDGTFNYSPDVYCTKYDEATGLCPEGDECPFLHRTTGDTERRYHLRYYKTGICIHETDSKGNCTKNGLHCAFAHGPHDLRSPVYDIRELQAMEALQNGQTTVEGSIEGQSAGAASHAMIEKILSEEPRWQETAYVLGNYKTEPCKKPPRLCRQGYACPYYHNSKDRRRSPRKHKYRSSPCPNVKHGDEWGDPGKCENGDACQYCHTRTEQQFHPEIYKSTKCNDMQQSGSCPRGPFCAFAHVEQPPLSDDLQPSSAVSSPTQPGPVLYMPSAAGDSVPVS
Sequence | bound/input enrichment
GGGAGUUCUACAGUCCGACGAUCCAGUCCCCGUGUCCCAGUGCAGGACGAUGUGAACAAAAACUCAAAGCGGACCCUCUACUGUAGUUGAUGAUUCUCGAAAUGUGCUAUUAUUGUUUGUCUUUUUUUUUAAAAGAAAAGAGACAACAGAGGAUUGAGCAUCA | 0.344 ratio
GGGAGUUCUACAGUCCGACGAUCAAUUUCCUGUCAUACUUUUUAGACAUUCACAUCAGACUUACAGAGCACCUGGCCACAUUCUAGGUUUGAAUUAUUUCUAAGCCUUUUAUAUGAUCAAAUGAGAACACUGCUUAACUAAUGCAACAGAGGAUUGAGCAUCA | 0.424 ratio
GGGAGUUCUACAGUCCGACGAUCUGUAGUUUCUUGAUUUAUCAUUUUUCUUGCUCGGGUUUUUCCUUUAGGAAAAGCCUAAAGAUUAGGUUGUAAGAAAAACAGAAGCCAUGUUUCGAAGGAAGACCUGUCAGGUAUUUCGUCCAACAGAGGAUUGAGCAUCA | 0.141 ratio
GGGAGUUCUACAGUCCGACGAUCGUUCGGCUUUGGGAUCAUGCCACAAUGACAGAAGUGAAAUCUCUAAAUUUUAAUAUGUCUGUUAGCAGCAUGGAGUAUAUUCCUGAAGGAGAGAUUUUGGUUAUUACUUAUGGACGAUCUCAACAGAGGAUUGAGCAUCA | 0.392 ratio
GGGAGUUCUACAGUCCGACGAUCAUCAAAUACUUUGGGGACAUCAUUAGUGUGGGACAGAGACUGUUGCAAGGAGCUCGGAUCUUAGGGAUUCCAGUUAUUGUAACAGAACAAUACCCCAAAGGUCUUGGCAGCACCGUUCAACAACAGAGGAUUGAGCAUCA | 0.132 ratio
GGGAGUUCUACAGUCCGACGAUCUGACAAGGGCACUGCAGAGCCAUGCCUUUCUUGGACAUACAGAAAAAGCUGGGCAUCAGCCUGGACCGAUGGUUGACGUUCCUAAGCGCAGAACAGCCCUAUAAGAACGCCGCUCGGUGCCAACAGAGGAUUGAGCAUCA | 0.0847 ratio
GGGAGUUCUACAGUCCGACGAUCAUGGAGAAGGAUUCUCUGCCCCGCUUUGUGCGCUCUGAGUUUUAUCAGGAGCUAAUCAAGUAGUCAUCUGGUCAGGCUUCCAAAAGUUCCUGUGAGUGUUGAGUUACAUCCUUUGUAGCACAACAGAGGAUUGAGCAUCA | 0.394 ratio
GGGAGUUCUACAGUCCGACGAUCCGAGACAAGACAUCCAGAAAUAUGAGAGGCUCCCGGAUGAAUGGGUUGCCUAGCCCCACUCACAGCGCCCACUGUAGCUUCUACCGAACCAGAACCUUGCAGGCACUGAGUAAUGAGAAGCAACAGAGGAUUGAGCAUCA | 0.126 ratio

Sample 5
Target: RNA binding protein fox-1 homolog 2, RRM domain, GST-SBP tag (RBFOX2, Homo sapiens, UniProt O43251-10, residues 100-194)
Method: RNA Bind-n-Seq
Molecule type: RNA
Matrix: in vitro
Concentration: 365 nM
Notes: natural RNA segment, single round, ends assumed
Reference: no-protein control
Direction: higher = stronger binding
Residues (chain): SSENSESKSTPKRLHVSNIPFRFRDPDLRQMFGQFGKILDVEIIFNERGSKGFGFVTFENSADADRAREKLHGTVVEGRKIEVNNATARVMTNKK
Sequence | RBNS enrichment (R)
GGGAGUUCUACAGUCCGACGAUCUUGUGUUGUAUUUUUGUUUUUAAAUAAAAGUACAGUAUAAAUUUUCCUAUUAAAUAAGAUUAUUUUAAGUUUUAGUGUCAACAUUGCAAUGCCAAUAGUAGGUGAGAGUGUGGAAUUCUCGGGUGCCAA | 0.562
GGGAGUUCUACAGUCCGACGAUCCUGUCCCGACACAGCGACGCUCCCCUGAGAGGUUUCUGGGGCCCGCUGCGUGCCAUCACUCAACCAUAACACUUGAUGCCGUUUCUUUCAAUAUUUAUUUCCAGAGUCCGUGGAAUUCUCGGGUGCCAA | 0.506
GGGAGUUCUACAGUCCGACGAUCGUUACAUCGGAGCAGGGGAGCCUCAAAUCCACCUUUGGAGCCGCCCCUGUGUGCAUUAGGAACCCUUCUCUCCUCUGAGAAAGCUCAGAGGGAGCACUGCCUCACAAACUUGGAAUUCUCGGGUGCCAA | 1.03
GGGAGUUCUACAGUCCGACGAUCGGGACGGUCCCCACCCCCAGGGACACAACCCCUGGUCUUGGACCAGUAGAGGACACGGAGGGUUCAGACCCCUCCUCAGACCCUCCCCACAUCUGAAACUGCCUCCCCCCUGGAAUUCUCGGGUGCCAA | 0.442
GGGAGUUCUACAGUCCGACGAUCAAGAAACAUUAGUCUUAGGAAUUCUUCAAAAAAUGGCAUCCCAAUGAAAAUAAAUUUGAUGACUAUAUUUUCAUGAAGGUUUGUGUCUUAUUUUAAAGUUAUAUUGAUAUUGGAAUUCUCGGGUGCCAA | 0.612
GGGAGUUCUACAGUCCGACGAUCUGAACCGUGGUCAGUCUGUGAGCAGCGCCAGCUGCCUGCAGCCAGGGCCUUGAGCACUGGGGAGCUCUCAAGGUAUACUCUUAGAGUAACUAUAUACCUGUAACUGGACCUGGAAUUCUCGGGUGCCAA | 0.179
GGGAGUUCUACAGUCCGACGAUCCUAAAAAUAGACCCUUUCUUCCCAAAGGUUGGGAGGUGGGACCUGAGCAGUGGAGUGAAGCCACACCCCACAAUUUUUUAUUUAUUUUUUUAUUUUUAGAUAGGGUUUCAUGGAAUUCUCGGGUGCCAA | 0.664
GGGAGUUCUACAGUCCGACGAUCUAUAGUUCUAUUGCCUUAUAUGCAAAAUUGUACCCUGUUGCUCAGAGAAAUUAUUCAUAAGAGAAAAGAAUUCCAAUUAAUUAAAUAUCACAAUAGCAUCCCAGAGAGACUGGAAUUCUCGGGUGCCAA | 0.581

Some of these lines once more (sample 1):
Sequence | E-score
ACAAGACA | -0.126
CCCCTGCG | 0.117
AATGTGAG | -0.223
ACTGCAAG | -0.0785
CGGGTTAG | 0.287
GCGAAGAC | 0.167
AGCTAGTC | -0.0853
ATGTTCTA | -0.0963
AGTCCTCC | -0.0373
